Assay results from different studies.
Protocols differ between the studies behind these lines. ± marks the error that the study gave.

SMILES	assay	test system	conditions	scale	measurement	value
CC#CC(=O)N1CCC[C@H]1c1nc(-c2ccc(C(=O)Nc3ccccn3)cc2)c2c(N)nccn12		Japanese patients, plasma	oral, 100 mg single dose, fasting, arithmetic mean		apparent volume of distribution (Vz/F)	1940 ± 2900 L
C=C[C@@H]1C[C@]1(NC(=O)[C@@H]1C[C@@H](Oc2ncc(OC)c3ccc(Cl)cc23)CN1C(=O)[C@@H](NC(=O)OC(C)(C)C)C(C)(C)C)C(=O)NS(=O)(=O)C1CC1		Japanese HCV patients	typical female 55 kg		apparent clearance (CL/F)	52.1 L/h
Cn1cc(-c2cnc3cnn(S(=O)(=O)c4cnc5ccc(-c6cnn(C)c6)cn45)c3c2)cn1		healthy Chinese men, plasma	oral, 300 mg single dose, low-fat meal		apparent volume of distribution	218 L
O=C(Nc1nc2cccc(-c3ccc(CN4CCS(=O)(=O)CC4)cc3)n2n1)C1CC1		healthy subjects	oral, 100 mg single dose, 1 h after itraconazole, fasting, mean, added: itraconazole 200 mg		apparent clearance (CL/F)	33.3 L/h
COc1cc2nccc(Oc3ccc(NC(=O)NC4CC4)c(Cl)c3)c2cc1C(N)=O		healthy volunteers	oral, dose not given, added: ketoconazole	reference: placebo	apparent volume of distribution	~10 % decrease
Cn1c(-c2ccc(C(N)=O)cc2F)nnc1C(C)(C)Oc1c(F)cc(Cl)cc1F		young non-Japanese healthy subjects, plasma	oral, 0.2 mg once daily, 3 mg loading day 1, mean, last dosing day		apparent volume of distribution Vz/F	2890 L
CC(C)c1nc(CN(C)C(=O)N[C@H](C(=O)N[C@@H](Cc2ccccc2)C[C@H](O)[C@H](Cc2ccccc2)NC(=O)OCc2cncs2)C(C)C)cs1	median	HIV and HCV patients, plasma	oral, lopinavir/ritonavir twice daily		apparent clearance	2.83 mL/min/kg
COC(=O)N[C@H](C(=O)N1CCC[C@H]1c1nc(-c2ccc(-c3ccc(-c4c[nH]c([C@@H]5CCCN5C(=O)[C@@H](NC(=O)OC)C(C)C)n4)cc3)cc2)c[nH]1)C(C)C		Japanese HCV patients	typical male 56 kg, added: asunaprevir		apparent clearance (CL/F)	5.29 L/h
C=CC(=O)N1CCC(CNc2ncnc(N)c2-c2ccc(Oc3ccccc3)cc2)CC1	population PK model	patients with relapsing multiple sclerosis	dose not given	reference: healthy participants	apparent clearance reduction	40.6%
O=C1OC2(c3ccc(O)cc3Oc3cc(O)ccc32)c2ccccc21		human BBB triple coculture	concentration not given, apical to basolateral		apparent permeability	0.22 ×10⁻⁶ cm/s
O=C(C1CCCCC1)N1CC(=O)N2CCc3ccccc3[C@@H]2C1		healthy men, plasma	oral, 40 mg/kg racemic praziquantel, geometric mean, without ritonavir		apparent oral clearance	2340 L/h
CC[C@H](C)[C@H](NC(=O)[C@H](Cc1ccccc1)NC(=O)[C@H](CCC(=O)O)NC(=O)[C@H](CCCCNC(=O)COCCOCCNC(=O)COCCOCCNC(=O)CC[C@H](NC(=O)CCCCCCCCCCCCCCCCC(=O)O)C(=O)O)NC(=O)[C@H](C)NC(=O)[C@H](C)NC(=O)[C@H](CCC(N)=O)NC(=O)CNC(=O)[C@H](CCC(=O)O)NC(=O)[C@H](CC(C)C)NC(=O)[C@H](Cc1ccc(O)cc1)NC(=O)[C@H](CO)NC(=O)[C@H](CO)NC(=O)[C@@H](NC(=O)[C@H](CC(=O)O)NC(=O)[C@H](CO)NC(=O)[C@@H](NC(=O)[C@H](Cc1ccccc1)NC(=O)[C@@H](NC(=O)CNC(=O)[C@H](CCC(=O)O)NC(=O)C(C)(C)NC(=O)[C@@H](N)Cc1cnc[nH]1)[C@@H](C)O)[C@@H](C)O)C(C)C)C(=O)N[C@@H](C)C(=O)N[C@@H](Cc1c[nH]c2ccccc12)C(=O)N[C@@H](CC(C)C)C(=O)N[C@H](C(=O)N[C@@H](CCCNC(=N)N)C(=O)NCC(=O)N[C@@H](CCCNC(=N)N)C(=O)NCC(=O)O)C(C)C		Caucasian subjects	subcutaneous, 1.0 mg, steady state, once weekly, geometric mean		apparent volume of distribution	7.84 L
C[C@H](Cn1cnc2c(N)ncnc21)OCP(=O)(O)O	population PK modelling	people living with HIV, plasma	oral, dose not given, after tenofovir alafenamide dosing, base model		apparent volume of distribution	2660 L
C[C@@H]1CCO[C@H]2Cn3cc(C(=O)NCc4ccc(F)cc4F)c(=O)c(O)c3C(=O)N12	population PK model	HIV-infected patients	oral		apparent clearance (CL/F)	0.901 L/h
CC(C)Cc1ccc(C(C)C(=O)O)cc1 (stereo not drawn)		1-octanol/buffer	pH 7.5		apparent partition coefficient	5.2

Repeated from above:
SMILES	assay	test system	conditions	scale	measurement	value
O=C(Nc1nc2cccc(-c3ccc(CN4CCS(=O)(=O)CC4)cc3)n2n1)C1CC1		healthy subjects	oral, 100 mg single dose, 1 h after itraconazole, fasting, mean, added: itraconazole 200 mg		apparent clearance (CL/F)	33.3 L/h
